Published values of several laboratories.
Several values in a cell are separate wells, animals, samples, runs or records. ± gives the spread as reported.
CASP3: Caspase-3 (CASP3, Homo sapiens, UniProt P42574)
UniProt P42574, sequence (whole entry, looked up): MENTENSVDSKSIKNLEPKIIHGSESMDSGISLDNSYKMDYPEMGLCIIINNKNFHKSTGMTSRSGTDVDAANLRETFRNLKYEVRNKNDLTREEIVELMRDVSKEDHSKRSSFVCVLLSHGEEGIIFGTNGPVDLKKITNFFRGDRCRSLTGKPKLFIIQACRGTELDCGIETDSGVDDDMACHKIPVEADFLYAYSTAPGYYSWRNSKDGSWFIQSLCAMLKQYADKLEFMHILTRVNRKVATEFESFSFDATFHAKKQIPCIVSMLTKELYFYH
Drd2: D(2) dopamine receptor (Drd2, Rattus norvegicus, UniProt P61169)
UniProt P61169, sequence (whole entry, looked up): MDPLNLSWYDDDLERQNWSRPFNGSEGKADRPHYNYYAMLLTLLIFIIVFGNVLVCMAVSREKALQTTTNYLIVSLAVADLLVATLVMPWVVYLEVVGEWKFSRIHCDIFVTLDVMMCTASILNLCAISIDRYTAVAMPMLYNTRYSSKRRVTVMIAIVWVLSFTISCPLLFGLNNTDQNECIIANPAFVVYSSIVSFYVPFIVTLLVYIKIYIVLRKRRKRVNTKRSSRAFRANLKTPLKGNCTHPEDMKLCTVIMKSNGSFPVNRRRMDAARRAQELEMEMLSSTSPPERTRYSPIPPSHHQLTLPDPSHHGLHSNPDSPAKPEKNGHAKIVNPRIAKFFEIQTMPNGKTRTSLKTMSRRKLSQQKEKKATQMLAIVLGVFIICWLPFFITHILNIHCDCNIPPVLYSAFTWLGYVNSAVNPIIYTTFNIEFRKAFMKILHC
Sigmar1: Sigma non-opioid intracellular receptor 1 (Sigmar1, Rattus norvegicus, UniProt Q9R0C9)
UniProt Q9R0C9, sequence (whole entry, looked up): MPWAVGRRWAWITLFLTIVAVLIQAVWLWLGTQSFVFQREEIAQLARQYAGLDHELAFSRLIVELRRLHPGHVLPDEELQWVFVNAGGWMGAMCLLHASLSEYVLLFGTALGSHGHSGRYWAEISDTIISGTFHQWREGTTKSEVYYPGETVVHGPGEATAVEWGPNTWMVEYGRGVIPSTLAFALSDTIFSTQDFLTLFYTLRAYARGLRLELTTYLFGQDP
CHRM5: Muscarinic acetylcholine receptor M5 (CHRM5, Homo sapiens, UniProt P08912)
UniProt P08912, sequence (whole entry, looked up): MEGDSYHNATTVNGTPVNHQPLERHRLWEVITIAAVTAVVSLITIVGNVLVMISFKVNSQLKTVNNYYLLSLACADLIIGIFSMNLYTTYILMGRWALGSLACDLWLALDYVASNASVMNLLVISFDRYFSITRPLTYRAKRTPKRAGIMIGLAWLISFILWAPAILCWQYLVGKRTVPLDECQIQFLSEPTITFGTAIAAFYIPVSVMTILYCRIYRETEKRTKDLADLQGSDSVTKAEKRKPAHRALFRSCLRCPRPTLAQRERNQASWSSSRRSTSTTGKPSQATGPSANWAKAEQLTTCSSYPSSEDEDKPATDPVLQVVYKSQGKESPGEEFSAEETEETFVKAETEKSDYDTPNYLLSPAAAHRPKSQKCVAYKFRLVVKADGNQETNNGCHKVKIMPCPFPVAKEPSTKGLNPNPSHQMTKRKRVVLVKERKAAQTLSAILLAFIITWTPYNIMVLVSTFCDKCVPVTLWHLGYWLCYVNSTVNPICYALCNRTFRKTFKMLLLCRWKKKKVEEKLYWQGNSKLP
CHRM1: Muscarinic acetylcholine receptor M1 (CHRM1, Homo sapiens, UniProt P11229)
UniProt P11229, sequence (whole entry, looked up): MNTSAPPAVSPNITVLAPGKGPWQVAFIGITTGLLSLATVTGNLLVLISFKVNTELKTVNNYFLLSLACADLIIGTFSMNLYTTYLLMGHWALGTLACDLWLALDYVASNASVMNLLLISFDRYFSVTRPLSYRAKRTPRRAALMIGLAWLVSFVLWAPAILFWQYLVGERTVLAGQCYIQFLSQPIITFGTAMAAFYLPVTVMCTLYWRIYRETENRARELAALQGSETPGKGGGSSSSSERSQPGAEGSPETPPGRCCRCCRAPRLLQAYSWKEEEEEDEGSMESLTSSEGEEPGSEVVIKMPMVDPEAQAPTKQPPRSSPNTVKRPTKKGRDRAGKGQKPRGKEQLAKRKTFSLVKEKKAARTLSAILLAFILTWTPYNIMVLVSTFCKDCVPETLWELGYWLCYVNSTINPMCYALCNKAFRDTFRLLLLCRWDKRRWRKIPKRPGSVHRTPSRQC
SLC10A2: Ileal sodium/bile acid cotransporter (SLC10A2, Homo sapiens, UniProt Q12908)
UniProt Q12908, sequence (whole entry, looked up): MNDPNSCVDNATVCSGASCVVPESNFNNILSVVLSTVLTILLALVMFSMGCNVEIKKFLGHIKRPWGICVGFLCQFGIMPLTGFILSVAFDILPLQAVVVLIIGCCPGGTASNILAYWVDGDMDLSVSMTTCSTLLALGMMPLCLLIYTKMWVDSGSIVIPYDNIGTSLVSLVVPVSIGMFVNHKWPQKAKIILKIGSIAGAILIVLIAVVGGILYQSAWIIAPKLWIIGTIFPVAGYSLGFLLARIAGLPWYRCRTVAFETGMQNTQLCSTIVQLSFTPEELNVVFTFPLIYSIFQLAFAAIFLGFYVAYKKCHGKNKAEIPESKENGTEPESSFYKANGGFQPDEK
CHRM3: Muscarinic acetylcholine receptor M3 (CHRM3, Homo sapiens, UniProt P20309)
UniProt P20309, sequence (whole entry, looked up): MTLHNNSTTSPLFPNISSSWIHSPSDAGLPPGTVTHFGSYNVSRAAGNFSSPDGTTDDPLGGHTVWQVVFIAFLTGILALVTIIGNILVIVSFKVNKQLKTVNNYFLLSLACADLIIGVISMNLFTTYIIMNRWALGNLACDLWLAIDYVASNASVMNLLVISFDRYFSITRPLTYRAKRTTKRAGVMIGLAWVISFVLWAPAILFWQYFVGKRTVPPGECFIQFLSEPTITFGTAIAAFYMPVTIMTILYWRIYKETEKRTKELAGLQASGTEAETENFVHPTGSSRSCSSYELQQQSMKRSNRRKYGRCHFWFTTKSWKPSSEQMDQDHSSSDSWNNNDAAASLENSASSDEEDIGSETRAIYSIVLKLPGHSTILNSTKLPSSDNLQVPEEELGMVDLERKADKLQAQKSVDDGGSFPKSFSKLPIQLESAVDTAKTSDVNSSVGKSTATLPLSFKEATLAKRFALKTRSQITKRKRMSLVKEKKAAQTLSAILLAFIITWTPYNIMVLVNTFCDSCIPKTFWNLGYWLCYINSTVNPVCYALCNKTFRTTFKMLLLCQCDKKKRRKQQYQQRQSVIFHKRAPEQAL
Hypoxanthine-guanine phosphoribosyltransferase: Hypoxanthine-guanine phosphoribosyltransferase (Trypanosoma cruzi, UniProt Q4DGA3)
ADORA1: Adenosine receptor A1 (ADORA1, Homo sapiens, UniProt P30542)
UniProt P30542, sequence (whole entry, looked up): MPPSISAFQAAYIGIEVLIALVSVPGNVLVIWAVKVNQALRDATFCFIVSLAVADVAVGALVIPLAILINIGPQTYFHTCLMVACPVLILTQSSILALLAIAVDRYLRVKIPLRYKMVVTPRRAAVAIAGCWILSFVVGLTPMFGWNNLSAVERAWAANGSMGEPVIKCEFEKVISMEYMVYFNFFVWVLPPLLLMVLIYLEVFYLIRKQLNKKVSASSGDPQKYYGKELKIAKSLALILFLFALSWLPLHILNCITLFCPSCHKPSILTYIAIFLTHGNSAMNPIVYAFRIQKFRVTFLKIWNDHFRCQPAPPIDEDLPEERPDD
UniProt P54753, sequence (whole entry, looked up): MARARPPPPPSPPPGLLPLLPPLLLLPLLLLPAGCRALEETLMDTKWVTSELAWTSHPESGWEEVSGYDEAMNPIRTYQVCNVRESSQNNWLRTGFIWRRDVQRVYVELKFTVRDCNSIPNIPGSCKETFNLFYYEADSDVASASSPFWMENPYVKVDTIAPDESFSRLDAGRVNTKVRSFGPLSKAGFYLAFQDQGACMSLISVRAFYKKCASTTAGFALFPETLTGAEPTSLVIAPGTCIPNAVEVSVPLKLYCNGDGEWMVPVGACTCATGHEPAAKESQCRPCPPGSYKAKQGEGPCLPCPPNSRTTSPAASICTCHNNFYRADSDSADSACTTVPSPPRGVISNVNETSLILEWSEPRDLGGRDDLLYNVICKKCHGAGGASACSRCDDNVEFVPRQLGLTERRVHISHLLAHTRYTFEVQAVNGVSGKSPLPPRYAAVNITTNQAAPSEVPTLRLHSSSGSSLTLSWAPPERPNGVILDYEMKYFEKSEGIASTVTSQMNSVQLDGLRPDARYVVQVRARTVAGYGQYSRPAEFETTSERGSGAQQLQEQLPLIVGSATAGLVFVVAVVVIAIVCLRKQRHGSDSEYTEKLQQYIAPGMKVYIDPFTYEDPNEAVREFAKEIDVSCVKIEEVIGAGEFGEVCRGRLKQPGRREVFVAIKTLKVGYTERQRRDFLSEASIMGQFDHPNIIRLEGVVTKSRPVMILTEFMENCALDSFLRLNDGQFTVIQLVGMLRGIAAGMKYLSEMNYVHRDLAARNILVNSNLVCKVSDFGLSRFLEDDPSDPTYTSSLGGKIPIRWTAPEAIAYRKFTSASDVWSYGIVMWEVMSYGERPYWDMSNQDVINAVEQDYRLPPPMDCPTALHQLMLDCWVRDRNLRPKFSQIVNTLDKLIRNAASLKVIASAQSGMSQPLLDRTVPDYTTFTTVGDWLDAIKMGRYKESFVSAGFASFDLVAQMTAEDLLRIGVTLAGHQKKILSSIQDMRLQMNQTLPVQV
UniProt P24666, sequence (whole entry, looked up): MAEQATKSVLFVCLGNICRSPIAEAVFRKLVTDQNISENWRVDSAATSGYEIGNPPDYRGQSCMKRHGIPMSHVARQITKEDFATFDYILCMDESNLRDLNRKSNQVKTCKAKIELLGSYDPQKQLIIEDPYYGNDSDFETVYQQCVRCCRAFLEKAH
UniProt Q27793, sequence (whole entry, looked up): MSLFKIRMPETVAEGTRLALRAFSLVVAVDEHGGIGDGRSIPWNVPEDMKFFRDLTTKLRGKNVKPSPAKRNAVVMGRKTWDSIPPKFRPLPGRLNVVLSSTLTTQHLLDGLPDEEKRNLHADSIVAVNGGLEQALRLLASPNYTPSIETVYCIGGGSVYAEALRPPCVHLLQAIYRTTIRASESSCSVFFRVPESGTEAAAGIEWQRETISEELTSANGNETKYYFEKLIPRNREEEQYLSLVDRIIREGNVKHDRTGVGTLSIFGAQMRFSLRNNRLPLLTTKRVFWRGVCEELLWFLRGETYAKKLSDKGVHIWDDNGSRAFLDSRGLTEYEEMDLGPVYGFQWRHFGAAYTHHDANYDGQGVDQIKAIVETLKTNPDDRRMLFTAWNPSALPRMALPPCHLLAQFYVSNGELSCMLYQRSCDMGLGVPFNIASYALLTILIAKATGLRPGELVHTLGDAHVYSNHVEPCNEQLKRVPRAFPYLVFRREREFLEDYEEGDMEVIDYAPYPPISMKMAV

| Compound | target | assay | test system | conditions | Ki |
| --- | --- | --- | --- | --- | --- |
| CC(=O)N[C@H](C(=O)N[C@H](C(=O)N[C@@H](CCCCN)C(=O)N[C@H](C=O)CC(=O)O)C(C)C)[C@@H](C)O | CASP3 | enzyme activity, inhibitor, fluorescence | – | pH 7 | 11200 nM |
| Clc1cc(OCCCN2CCN(c3cccc4sccc34)CC2)ccc1CN1CCOCC1 | Drd2 | cell-free assay, radioligand | – | – | 85.6 nM |
| CC(=O)N[C@@H](Cc1c[nH]c2ccccc12)C(=O)N[C@@H](CC(=O)O)C(=O)N[C@@H](CCCNC(=N)N)C(=O)N[C@@H](C)C(=O)N[C@H](C=O)CC(=O)O | CASP3 | enzyme activity, inhibitor, fluorescence | – | pH 7 | 45.7 nM |
| CCN(CC)C(=O)c1ccc(-c2cc(NCCCN3CCCCC3)c3ccccc3n2)cc1 | Low molecular weight phosphotyrosine protein phosphatase, isoform A (ACP1, Homo sapiens, UniProt P24666) | enzyme activity, uncompetitive inhibitor | – | 0.78 nM enzyme, added: OMFP | 846 ± 29.2 nM |
| OC[C@@H]1[C@@H](O)[C@H](O)[C@@H](O)CN1CCCCCOCC1CCCO1 (stereo partly drawn) | Cytosolic beta-glucosidase (GBA3, Homo sapiens, UniProt Q9H227) | enzyme activity, inhibitor | – | – | 145000 nM |
| C/C(=N\OCCN1CCCCC1)c1cccc(C(F)(F)F)c1 | Sigmar1 | binding | – | – | 6.41 ± 1.8 nM |
| CC(=O)N[C@@H](CC(=O)O)C(=O)N[C@H](C(=O)N[C@@H](CCN)C(=O)N[C@H](C=O)CC(=O)O)C(C)C | CASP3 | enzyme activity, inhibitor, fluorescence | – | pH 7 | 3310 nM |
| CCC(=O)NC1CN(CCCCC2CCN(CC(=O)N3c4ccccc4NC(=O)c4ccccc43)CC2)CCN(CCCOc2nsnc2C2=CCCN(C)C2)C1 (stereo not drawn) | CHRM5 | ligand displacement, radioligand | – | – | 100 nM |
| NS(=O)(=O)c1ccc(Nc2nc3nccc(-c4ccc5ccccc5c4)n3n2)cc1 | Carbonic anhydrase 4 (CA4, Homo sapiens, UniProt P22748) | enzyme activity, inhibitor, stopped-flow | – | – | 8200 nM |
| NCC1Cc2cccc(-c3ccc(S(N)(=O)=O)cc3F)c2O1 (stereo not drawn) | Beta-2 adrenergic receptor (ADRB2, Homo sapiens, UniProt P07550) | ligand displacement, radioligand | – | cell membranes | 2000 to 25100 nM |
| CN1CCC=C(c2nsnc2OCCCCCNC(=O)c2ccc(C(=O)NCCCCCOc3nsnc3C3=CCCN(C)C3)cc2)C1 | CHRM1 | ligand displacement, radioligand | – | – | 19.1 nM |
| CNC(=O)C1CCN(c2cc(C)c(F)cc2NC(=O)c2ccc(-c3cc(O)ccc3C)c(C)c2)CC1 | Ephrin type-B receptor 3 (EPHB3, Homo sapiens, UniProt P54753) | cell-free assay, TR-FRET | – | – | 128 nM |
| COc1ccc(NC(=O)CC[C@H](NC(=O)CC[C@@H](C)[C@H]2CC[C@H]3[C@@H]4[C@H](O)C[C@@H]5C[C@H](O)CC[C@]5(C)[C@H]4CC[C@]23C)C(=O)O)cn1 | SLC10A2 | taurocholate uptake, inhibitor | ASBT-MDCK | 10 min, added: taurocholate 2.5 µM | 8940 nM and < 10000 nM |
| CC(=O)N[C@H](C(=O)N[C@@H](CCN)C(=O)N[C@H](C=O)CC(=O)O)C(C)C | CASP3 | enzyme activity, inhibitor, fluorescence | – | pH 7 | > 100000 nM |
| C=C=C(CN1CCCC(C(=O)O)C1)C(c1ccc(OC)cc1)(c1ccc(OC)cc1)c1ccc(OC)cc1 (stereo not drawn) | Sodium- and chloride-dependent glycine transporter 1 (SLC6A9, Homo sapiens, UniProt P48067) | cell-free assay, mass spectrometry | – | – | 141 nM |
| CCCCCCOc1ccc(C(=O)OCCN2CC=CCC2)cc1 | CHRM3 | ligand displacement, radioligand | – | cell membranes | 5750 nM |
| CN1CCC=C(c2nsnc2OCCCCCNC(=O)CCCNC(=O)c2cc(CN)cc(C(=O)NCCN3CCN(CCCCC4CCN(CC(=O)N5c6ccccc6NC(=O)c6ccccc65)CC4)CC3)c2)C1 | CHRM1 | ligand displacement, radioligand | – | – | 1.58 nM |
| CC(Cl)C(=O)Nc1ccc2nc(NCCCCCN(C)C)nc(NCCCCCCN(C)C)c2c1 (stereo not drawn) | Histone-lysine N-methyltransferase SETDB1, triple Tudor domain (SETDB1, Homo sapiens, UniProt Q15047) | – | – | – | 750 ± 350 nM |
| COc1ccc(CCCN[C@H]2CCC[C@@H]2CN[C@@H]2CCC[C@H]2CNCCCCN[C@H]2CCC[C@@H]2CN)cc1 | Amine oxidase [flavin-containing] B (MAOB, Homo sapiens, UniProt P27338) | enzyme activity, inhibitor | – | – | > 500000 nM |
| Clc1cc(CN2CCCCC2)ccc1OCCCN1CCN(c2cccc3sccc23)CC1 | Drd2 | cell-free assay, radioligand | – | – | 125 nM |
| CCC(=O)NCc1cc(C(=O)NCCCC(=O)NCCCCCOc2nsnc2C2=CCCN(C)C2)cc(C(=O)NCCN2CCN(CCCCC3CCN(CC(=O)N4c5ccccc5NC(=O)c5ccccc54)CC3)CC2)c1 | CHRM3 | ligand displacement, radioligand | – | – | 13.5 nM |

| Compound | target | assay | test system | conditions | Ki |
| --- | --- | --- | --- | --- | --- |
| CC(=O)N[C@@H](CC(C)C)C(=O)N[C@@H](CC(=O)O)C(=O)N[C@H](C(=O)N1CCC[C@H]1C(=O)N[C@H](C=O)CC(=O)O)C(C)C | CASP3 | enzyme activity, inhibitor, fluorescence | – | pH 7 | 6.92 nM |
| O=c1[nH]cnc2c(CN[C@H](CO)CC(F)P(=O)(O)O)c[nH]c12 (stereo partly drawn) | Hypoxanthine-guanine phosphoribosyltransferase | – | – | – | 26 ± 2 nM |
| CN1CCC=C(c2nsnc2OCCCN2CCN(CCCCC3CCN(CC(=O)N4c5ccccc5NC(=O)c5ccccc54)CC3)CC2)C1 | CHRM5 | ligand displacement, radioligand | – | – | 33.9 nM |
| Nc1nc2c(ncn2C2OC(COP(=O)(O)O)C(O)C2O)c(=O)[nH]1 (stereo not drawn) | Hypoxanthine-guanine phosphoribosyltransferase | enzyme activity, inhibitor | – | pH 8.3, 37 °C, added: PRPP varied and guanine fixed | 5000 ± 1000 nM |
| O=Cc1ccc(-c2cn([C@@H]3O[C@H](COP(=O)(O)OP(=O)(O)O[C@H]4O[C@H](CO)[C@H](O)[C@H](O)[C@H]4O)[C@@H](O)[C@H]3O)c(=O)[nH]c2=O)s1 | Histo-blood group ABO system transferase (ABO, Homo sapiens, UniProt P16442, G268A/L266G) | galactosyltransferase activity, inhibitor, radiochemical | – | added: 2 µM UDP-galactose donor, 100 µM acceptor | 530 nM |
| NC(=O)CCNC(=O)[C@H]1O[C@@H](n2cnc3c(N)ncnc32)[C@H](O)[C@@H]1O | ADORA1 | ligand displacement, radioligand | – | cell membranes | 540 nM |
| C[C@@H]1O[C@@H](O[C@H]2C(=O)c3c(O)cc(O)cc3O[C@@H]2c2ccc(O)cc2)[C@H](O)[C@H](O)[C@H]1O | Tyrosine-protein phosphatase non-receptor type 1 (PTPN1, Homo sapiens, UniProt P18031) | enzyme activity, inhibitor | – | – | 1160 nM |
| O=c1c2c(O)cc(O)cc2oc2oc3cc(O)ccc3c12 | alpha-glucosidase | inhibitor, Dixon plot | – | – | 45000 nM |
| O=C(COc1ccc2ccccc2c1)NCc1ccc(OP(=O)(O)O)cc1 | Signal transducer and activator of transcription 5A, SH2 (Homo sapiens, UniProt P42229) | ligand displacement, FP | – | – | 40000 nM |
| O=C(OC1CCN(CCOCCOCCN2CCC(OC(=O)C(c3ccccc3)c3ccccc3)CC2)CC1)C(c1ccccc1)c1ccccc1 | CHRM5 | ligand displacement, radioligand | – | – | 1350 nM |
| CC(=O)NCC(=O)N[C@@H](CCC(=O)O)C(=O)N[C@@H](CO)C(=O)N1CCC[C@H]1C(=O)N[C@H](C=O)CC(=O)O | CASP3 | enzyme activity, inhibitor, fluorescence | – | pH 7 | 186 nM |
| Cc1cccc2c1O[C@@H](c1nc(C(=O)O)cs1)CN2Cc1ccccc1 | Apoptosis regulator Bcl-2 (BCL2, Homo sapiens, UniProt P10415) | ligand displacement, FP | – | – | 93000 nM |
| CN1CCC=C(c2nsnc2OCCCN2CCN(CCCCC3CCN(CC(=O)N4c5ccccc5NC(=O)c5ccccc54)CC3)CC(N)C2)C1 (stereo not drawn) | CHRM3 | ligand displacement, radioligand | – | – | 61.7 nM |
| CC(C)C[C@H](NC(=O)[C@H](CC(C)C)NC(=O)[C@H](Cc1c[nH]cn1)NC(=O)[C@H](CC(C)C)NC(=O)[C@@H](NC(=O)[C@H](CCC(=O)O)NC(=O)[C@H](CO)NC(=O)[C@H](Cc1c[nH]c2ccccc12)NC(=O)[C@H](C)NC(=O)[C@@H](N)[C@@H](C)O)C(C)C)C(=O)N[C@@H](CO)C(=O)N[C@@H](CCCNC(=N)N)C(=O)NCC(=O)NCC(=O)NCC(=O)N[C@@H](CO)C(=O)N[C@@H](CCCCN)C(N)=O | Plasma membrane calcium-transporting ATPase 1 (ATP2B1, Oryctolagus cuniculus, UniProt Q00804) | enzyme activity, inhibitor | duodenal mucosal plasma membranes | – | 105000 ± 11000 nM |
| CC1(C)NC(N)=Nc2nc3ccccc3n21 | Bifunctional dihydrofolate reductase-thymidylate synthase, DHFR domain (Trypanosoma cruzi, UniProt Q27793) | enzyme activity, competitive inhibitor | – | added: dihydrofolate 60 µM, NADPH 100 µM | 9660 nM |
| COC(=O)[C@H](CCCC[N+](C)(C)CCCCN(O)C(=O)/C=C/C(=O)O)NC(=O)OCc1ccccc1 | Lysine-specific demethylase 2A (KDM2A, Homo sapiens, UniProt Q9Y2K7) | ligand displacement, FP | – | – | 3100 nM |
| N#Cc1c(N)nc(SCc2ncc[nH]2)c(C#N)c1-c1cccc(O)c1 | ADORA1 | ligand displacement, radioligand | – | cell membranes | 9.6 nM |
| Cc1cc(CN2CCOCC2)ccc1OCCCN1CCN(c2cccc3sccc23)CC1 | Drd2 | cell-free assay, radioligand | – | – | 90.2 nM |
| O=C1Nc2ccccc2N(C(=O)CN2CCC(CCCCN3CCN(CCCCOC(=O)C4c5ccccc5Oc5ccccc54)CC3)CC2)c2ccccc21 | CHRM5 | ligand displacement, radioligand | – | – | 93.3 nM |
| C[C@H](CCC(=O)OCc1ccccc1)[C@H]1CC[C@H]2[C@@H]3[C@H](O)C[C@H]4C[C@H](OC(=O)CCC(=O)O)CC[C@]4(C)[C@H]3CC[C@]12C | SLC10A2 | transporter uptake, inhibitor, radiometric | – | – | 6730 nM |
| C/C(=N\OCCCCN1CCCCC1)c1cccc(C(F)(F)F)c1 | Sigmar1 | binding | – | – | 43.2 ± 4.58 nM |

Some of these lines once more:
| Compound | target | assay | test system | conditions | Ki |
| --- | --- | --- | --- | --- | --- |
| Clc1cc(OCCCN2CCN(c3cccc4sccc34)CC2)ccc1CN1CCOCC1 | Drd2 | cell-free assay, radioligand | – | – | 85.6 nM |
| Cc1cc(CN2CCOCC2)ccc1OCCCN1CCN(c2cccc3sccc23)CC1 | Drd2 | cell-free assay, radioligand | – | – | 90.2 nM |
| O=c1c2c(O)cc(O)cc2oc2oc3cc(O)ccc3c12 | alpha-glucosidase | inhibitor, Dixon plot | – | – | 45000 nM |
| COC(=O)[C@H](CCCC[N+](C)(C)CCCCN(O)C(=O)/C=C/C(=O)O)NC(=O)OCc1ccccc1 | Lysine-specific demethylase 2A (KDM2A, Homo sapiens, UniProt Q9Y2K7) | ligand displacement, FP | – | – | 3100 nM |
| CC(C)C[C@H](NC(=O)[C@H](CC(C)C)NC(=O)[C@H](Cc1c[nH]cn1)NC(=O)[C@H](CC(C)C)NC(=O)[C@@H](NC(=O)[C@H](CCC(=O)O)NC(=O)[C@H](CO)NC(=O)[C@H](Cc1c[nH]c2ccccc12)NC(=O)[C@H](C)NC(=O)[C@@H](N)[C@@H](C)O)C(C)C)C(=O)N[C@@H](CO)C(=O)N[C@@H](CCCNC(=N)N)C(=O)NCC(=O)NCC(=O)NCC(=O)N[C@@H](CO)C(=O)N[C@@H](CCCCN)C(N)=O | Plasma membrane calcium-transporting ATPase 1 (ATP2B1, Oryctolagus cuniculus, UniProt Q00804) | enzyme activity, inhibitor | duodenal mucosal plasma membranes | – | 105000 ± 11000 nM |
